Measurements pooled from the literature.
A part holds a random share of what one study measured.

Sample 1
Target: RNA binding protein fox-1 homolog 2, RRM domain, GST-SBP tag (RBFOX2, Homo sapiens, UniProt O43251-10, residues 100-194)
Technique: RNA Bind-n-Seq
Molecule type: RNA
Matrix: in vitro
Tested at: 365 nM
Setting: natural RNA segment, single round, ends assumed
Baseline: no-protein control
Reading: higher = stronger binding
| Oligonucleotide | RBNS enrichment (R) |
| --- | --- |
| GGGAGUUCUACAGUCCGACGAUCCACAGUGGGGAGUCAAUGUCCAGCCCUACUCCGGGUCCCCAGCCAACCUGGCCGUCUACACAGCCCUUCUGCAACCUCACGACCGGAUCAUGGGGCUGGACCUGCCCGAUUGGAAUUCUCGGGUGCCAA | 0.477 |
| GGGAGUUCUACAGUCCGACGAUCAGAUUGUGGGAGCUUCGCUGAACGUUAAUGUGUAGUAAAUGCACCUCCUUGUAUUCCCACUUUCGUAGUCAUUUCGGUUCUGAUCUUGUCAAACCCAGCCUGACCGCUUCUGGAAUUCUCGGGUGCCAA | 0.61 |
| GGGAGUUCUACAGUCCGACGAUCCACAGACAGGCCAGAUGCAUUUGUCCUUUGCCUAGCUACUCCCCAGGUAGAGAGUGCUCCUGGUGGCCUGGCAGGUCUGGGCCCUUCUCUCCCUGCCCAGGUUGUCCCUGUGGAAUUCUCGGGUGCCAA | 0.381 |
| GGGAGUUCUACAGUCCGACGAUCGUCUCUGAUGAGUUAUGCUAAGUUCUAGUCUGAUUAUCCUCCUGGUUCCAUUUAAGGCCCUCAGAGAUCAAUGCAAUUAGCCUAGCUUCCCCUUUGUUUAGGCAUCACUUUGGAAUUCUCGGGUGCCAA | 0.397 |

Sample 2
Target: Histone acetyltransferase KAT6A, both winged helices, GST fusion (KAT6A, Homo sapiens, UniProt Q92794, residues 1-181)
Technique: protein binding microarray
Molecule type: double-stranded DNA, one strand shown
Matrix: in vitro
Tested at: not given
Setting: 8-mer, flanks averaged, mean of 2 arrays, mostly near background
Baseline: not given
Reading: higher = stronger binding
Target sequence (chain): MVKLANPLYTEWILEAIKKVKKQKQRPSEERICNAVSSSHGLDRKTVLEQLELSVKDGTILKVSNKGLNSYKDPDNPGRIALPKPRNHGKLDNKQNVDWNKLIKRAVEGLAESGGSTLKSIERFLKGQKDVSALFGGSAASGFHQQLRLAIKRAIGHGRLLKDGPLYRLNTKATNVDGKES
| Oligonucleotide | E-score |
| --- | --- |
| AGTGTATG | 0.0572 |
| CAGTCGCA | 0.117 |
| AAAAACAT | -0.0379 |
| CATTCGGC | 0.14 |
| GTGCTAAC | 0.114 |
| GCACAACC | -0.0412 |

Sample 3
Target: Phosphate system positive regulatory protein PHO4, full length, GST-tagged (PHO4, Saccharomyces cerevisiae, UniProt P07270, residues 1-312)
Technique: competition protein-binding microarray
Molecule type: double-stranded DNA, one strand shown
Matrix: in vitro
Tested at: 2 µM
Setting: whole 60-bp probe, lowest competitor level
Together with: Cbf1 competitor, 0.05 µM
Reading: higher = stronger binding
Target sequence (chain): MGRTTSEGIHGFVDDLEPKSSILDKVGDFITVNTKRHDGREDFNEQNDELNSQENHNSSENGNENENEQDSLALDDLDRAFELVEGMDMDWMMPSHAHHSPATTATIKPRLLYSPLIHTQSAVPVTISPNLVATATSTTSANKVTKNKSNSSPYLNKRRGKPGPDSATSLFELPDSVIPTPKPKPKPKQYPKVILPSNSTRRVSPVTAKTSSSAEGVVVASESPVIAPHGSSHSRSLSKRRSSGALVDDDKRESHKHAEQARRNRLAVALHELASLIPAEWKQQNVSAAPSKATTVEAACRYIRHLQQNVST
| Oligonucleotide | fluorescence intensity |
| --- | --- |
| CAAACGGCATTCCGTCACGTACGATAACTTGATCCTGTCTTGATTCGCTTGACGCTGCTG | 5260 a.u. |
| TTTGTTCCTTGGAACCACATGATTTACTCAACAAATGTCTTGATTCGCTTGACGCTGCTG | 6910 a.u. |
| TGATCATATCAGCTTGTTCATTGCTCTTATTTTTCTGTCTTGATTCGCTTGACGCTGCTG | 3300 a.u. |
| CATACCCAACCTTGCAAAGTGGGTGAAGATATTTGTGTCTTGATTCGCTTGACGCTGCTG | 3320 a.u. |

Single results of other studies
| Substance | target | test | system | setting | scale | measurement | result |
| --- | --- | --- | --- | --- | --- | --- | --- |
| PhoQ, residues 284 288 289 292 302 303 QWGLFV | PhoP, residues 12 14 15 18 19 LHSVW (Escherichia coli, UniProt P23836) | Sort-seq, measured: YFP reporter | E. coli | PhoQ-PhoP variant library, together with: 10 µM Mg2+ | baseline: high Mg2+ state, higher = stronger signaling | fold induction | 7.35 |
